Measured values gathered from unrelated publications.
Protocols differ between the studies behind these lines. ± marks the error that the study gave.

Structure (SMILES)	cell line	assay	setting	scale	quantity	result
COc1cc(CNC(=O)C[C@H](C)CCC=C(C)C)ccc1OCc1cn(-c2cccc(Cl)c2)nn1	DU-145	SRB	10 µM, 48 h		growth percent	86.6%
Cc1c2ccnc(C(=O)N[C@H](C)CN(C)C)c2cc2c3cc(OCCCN4CCN(C)CC4)ccc3n(C)c12	C9orf72 ALS patient-derived iPSCs	western blot	5, 50, 500 nM		C9ORF72 protein level	no effect
CC[C@H](C)[C@@H]1NC(=O)[C@H]([C@@H](C)O)NC(=O)[C@H](Cc2ccc(O)cc2)NC(=O)[C@H](CCCNC(=N)N)NC(=O)[C@@H]2CCCN2C(=O)[C@H]2CCCN2C(=O)[C@H]([C@@H](C)O)NC(=O)[C@H](C(C)C)NC(=O)[C@H](C(C)C)NC(=O)[C@H](CCCCN)NC(=O)[C@H]([C@@H](C)O)NC(=O)[C@H](CCC(N)=O)NC(=O)[C@H](CO)NC(=O)[C@H](Cc2ccc(O)cc2)NC(=O)[C@H](CO)NC(=O)[C@H](Cc2ccc(O)cc2)NC(=O)[C@@H]2CCCN2C(=O)[C@H](CO)NC(=O)[C@H](CO)NC(=O)[C@H](CC(C)C)NC(=O)[C@H](CCCCN)NC(=O)[C@H](C)NC1=O	human iPSC-derived neurons		0.25 µM, 24 h, with: amyloid beta 5 µM, oligomer-forming	baseline: amyloid beta alone	total cell-associated amyloid beta	~47%
CC(C)Cc1ccc(C(C)C(=O)N/N=C/c2ccc(OCC(=O)N/N=C/c3cccc(O)c3)cc2)cc1 (stereo not drawn)	U87 MG	MTT	10 µM, 48 h		viability	120%
CCN1CCC2(CC1)C/C(=N\NC(=O)Nc1ccccc1)c1ccccc1O2	A549	annexin V-FITC/PI	concentration not given, 24 h		necrotic cells	2.93%
COc1cc(CNC(=O)C[C@H](C)CCC=C(C)C)ccc1OCc1cn(-c2ccc(Br)cc2)nn1	T47D breast cancer cells	SRB	10 µM, 48 h		growth percent	49.3%
COc1cccc(/C=N/NC(=O)COc2ccc(/C=N/NC(=O)C(C)c3ccc(CC(C)C)cc3)cc2)c1O (stereo not drawn)	U87 MG	MTT	10 µM, 48 h		viability	56%
C=CC(=O)N1C[C@H](C)N(c2nc(OC[C@@]34CCCN3C[C@H](F)C4)nc3c(F)c(-c4ccc(F)c5sc(N)c(C#N)c45)c(C(F)(F)F)cc23)C[C@H]1C	NCI-H358 (KRAS G12C)	HTRF, item: pERK			kinact/KI	43000 M⁻¹ s⁻¹
CS(=O)(=O)c1ccc(-c2nnc(/C=C/c3nnc(-c4ccc(C#N)cc4)o3)n2-c2ccccc2Cl)nc1	COLO 320DM	BrdU incorporation	concentration not given, 48 h		DNA synthesis	decreased
CC(=O)OC[C@H]1O[C@@H](Sc2sc(C(=O)c3ccc(Br)cc3)c(N)c2-c2nc3ccccc3s2)[C@H](OC(C)=O)[C@@H](OC(C)=O)[C@H]1OC(C)=O	ACHN	SRB	10 µM, 48 h	baseline: untreated	growth	90.5%
C=CCON=C(C(O)C(C)O)C(OC)C1Cc2cc3cc(OC4CC(OC5CC(O)C(O)C(C)O5)C(O)C(C)O4)c(C)c(O)c3c(O)c2C(=O)C1OC1CC(OC2CC(OC3CC(C)(O)C(O)C(C)O3)C(O)C(C)O2)C(O)C(C)O1 (stereo not drawn)	TC-32	cell growth	72 h		GI50	0.116 µM
CC(C)Cc1ccc(C(C)C(=O)N/N=C/c2ccc(OCC(=O)N/N=C/c3ccc([N+](=O)[O-])cc3)cc2)cc1 (stereo not drawn)	U87 MG	MTT	10 µM, 48 h		viability	90%
CC1CCN(c2ccc3nc(-c4cccc(N5CCc6ccccc6C5)n4)[nH]c3c2)CC1	HT-22	protection from ferroptosis, CCK-8 viability	24 h, with: 1 µM erastin		EC50	0.67 µM
CC(C)c1cnn2c(NCc3ccccc3)cc(N[C@@H](CO)[C@H](O)CO)nc12	NIH-3T3 pHamdr1 (ABCB1-overexpressing)	cell growth, sulforhodamine B		baseline: pHamdr1 over parental 3T3	GI50 ratio	> 2
COc1c(OCCCCN2CCCC2)cc(O)c2c(=O)cc(-c3ccccc3)oc12	KBM5-T315I	CCK-8	12 h, with: ponatinib		combination index	13.4
CC(=O)OC[C@H]1O[C@@H](Sc2sc(C(=O)c3ccc(C)cc3)c(N)c2-c2nc3ccccc3s2)[C@H](OC(C)=O)[C@@H](OC(C)=O)[C@@H]1OC(C)=O	OVCAR-5	SRB	10 µM, 48 h	baseline: untreated	growth	58.6%
COc1cc(C=O)ccc1OC(=O)COC(=O)[C@]1(C)C2CC[C@]3(C)C(C(=O)C=C4C5[C@@H](C)[C@H](C)CC[C@]5(C)CC[C@]43C)[C@@]2(C)CC[C@H]1OC(C)=O (stereo partly drawn)	RAW264.7	NO release, inhibitor, Griess	10 µM, 24 h, LPS-stimulated		inhibition	66.4%
N[C@@H](CCC(=O)N[C@@H](CS[Se]Cc1ccc(-c2cc(C(F)(F)F)nn2-c2ccc(S(N)(=O)=O)cc2)cc1)C(=O)NCC(=O)O)C(=O)O	1205 Lu melanoma	propidium iodide flow cytometry	25 µM, 72 h	baseline: untreated	sub-G0/G1 cells	6.2 fold
COc1cc2c(OC3OCC(OC)C(OC)C3OC(=O)c3ccc(Br)cc3)c3c(c(-c4ccc5c(c4)OCO5)c2cc1OC)C(=O)OC3 (stereo not drawn)	CAL-27	western blot, item: mature cathepsin D	0.1, 1, 2 µM, 36 h, with: bafilomycin A1 0.1 µM	baseline: DMSO	protein level	decreased
C[N+]1(CC(=O)OC2CCCCCCCCCCC2)CCCCC1	DU-145	cell viability, CellTiter Blue	96 h		ED90	29.1 µM
COc1cc(CNC(=O)C[C@H](C)CCC=C(C)C)ccc1OCc1cn(-c2ccccc2)nn1	T47D breast cancer cells	SRB	10 µM, 48 h		growth percent	66%

Structure (SMILES)	cell line	assay	setting	scale	quantity	result
N#Cc1cccc(/C=C/C(=O)c2ccc(O)cc2)c1	U-87 MG and D54	western blot, item: E2F1 and RAD51	concentration not given, 24 h		protein level	decreased
Cc1nn(-c2ccc(S(=O)(=O)N[C@@H](CO)CC(C)C)cc2)c2nn3nnnc3nc12	HT-29	AO/EB staining	2 µM, 24 h		necrotic cells	19 ± 1.41%
COc1cc(CNC(=O)C[C@H](C)CCC=C(C)C)ccc1OCc1cn(-c2ccc([N+](=O)[O-])cc2)nn1	LOX IMVI	SRB	10 µM, 48 h		growth	62.7%
C=C(C)[C@@H]1CC[C@]2(C(=O)OCO/N=[N+](\[O-])N3CCCC3)CC[C@]3(C)[C@H](CC[C@@H]4[C@@]5(C)CC[C@H](OC(C)=O)C(C)(C)[C@@H]5CC[C@]43C)[C@@H]12	B16-F10	PI flow cytometry	0.25 µM		cells in G1 phase	43.2%
Cc1ccc(CN2C(=O)/C(=N\c3ccc(Cl)cc3Br)c3ccccc32)cc1	B16		0.8 µM, 48 h		apoptotic cells	30.9%
CCC[C@H]1CC[C@H](c2ccc(NC(=S)NC[C@@H]3[C@@H](O)[C@@H](O)[C@H]4[C@H](O)CCCN43)cc2)CC1	Huh-7	Transwell	concentration not given		cell migration	decreased
COc1cc(CNC(=O)C[C@H](C)CCC=C(C)C)ccc1OCc1cn(-c2ccc(C#N)cc2)nn1	ACHN	SRB	10 µM, 48 h		growth percent	72.8%
O=Cc1c(O)ccc2ccccc12	HUVEC	RNA sequencing, item: SAT1	75 µM, 24 h	baseline: DMSO	log2 fold change	2.6
C/C=C(/NC(=O)CCCCCCC)C(=O)N/C(=C/C)C(=O)N[C@H](CC(C)C)C(=O)N[C@@H](CC(C)C)C(=O)Nc1ccc(C(=O)N[C@H](C(=O)O)[C@@H](C)O)cc1	RAW264.7	NO production, Griess	concentration not given, with: LPS		inhibition	inhibited
COc1cc(CN2CCN(c3ccc(Cl)cc3)CC2)c2cc3[n+](cc2c1O)CCc1cc2c(cc1-3)OCO2	HeLa and MDCK	SRB	48 h	baseline: CC50 MDCK over IC50 HeLa	therapeutic index	45.8
COc1cc(CNC(=O)C[C@H](C)CCC=C(C)C)ccc1OCc1cn(-c2ccccc2Cl)nn1	MDA-MB-435 melanoma cells	SRB	10 µM, 48 h		growth percent	66.5%
CC1=CC(C)(C)N=C(Nc2nc(C)c3cc(C)cc(C)c3n2)N1	PBMC	ELISA	10 µM, 288 h		IFN-γ level	108%
CC[C@H](C(=O)N1CCCC[C@@H]1C(=O)O[C@H](CCc1ccc(OC)c(OC)c1)c1cccc(OCC(=O)NCCOCCOCCN(C)C/C=C/C(=O)Nc2cc3c(Nc4ccc(F)c(Cl)c4)ncnc3cc2OC)c1)c1cc(OC)c(OC)c(OC)c1	NCI-H1975 expressing FKBP12F36V-PTPN2	CellTiter-Glo	concentration not given, 6 days		decrease in viability	57.6%
C=C(CC)C(=O)c1ccc(OCC(=O)NCCNC(=O)COc2ccc(C(=O)C(=C)CC)c(Cl)c2Cl)c(Cl)c1Cl	SK-OV-3/DDP cisplatin-resistant	cell growth, CCK-8	1.0 µM, with: cisplatin		sensitisation to cisplatin	~5 fold
[Cl-].[Cl-].[Ru+2].c1ccc2nc(-c3ccc4ccccc4n3)ccc2c1.c1cnc2c(c1)ccc1cccnc12.c1cnc2c(c1)ccc1cccnc12	A549	oxygen consumption rate, Seahorse extracellular flux	1 h, with: indigo light 450 nm, 29.1 J/cm2		lowest concentration inhibiting OCR	10 µM
COc1cc(CNC(=O)C[C@H](C)CCC=C(C)C)ccc1OCc1cn(-c2cccc([N+](=O)[O-])c2)nn1	T47D breast cancer cells	SRB	10 µM, 48 h		growth percent	58.9%
O=C(/C=C(O)/C=C/c1cccs1)/C=C/c1cccs1	Caco-2	DCFH-DA, SRB-normalized	10 µM	baseline: untreated cells	intracellular ROS	138 ± 14.2%
O=C1Nc2ccc(Cl)cc2C1=Cc1c(Cl)[nH]c2c1ccc1ccccc12	colon cancer subpanel of NCI-60		48 h		TGI	6.17 µM
CC(C)C(=O)Cc1c(OCC(O)C(C)(C)O)ccc2ccc(=O)oc12 (stereo not drawn)	COLO 320 (ABCB1-overexpressing, multidrug-resistant)	cell growth	200 µM starting, CI at ED50, with: doxorubicin, ratio 371.2:1		combination index	0.81
COc1cc(CNC(=O)C[C@H](C)CCC=C(C)C)ccc1O	ACHN	SRB	10 µM, 48 h		growth percent	96.2%
COc1ccc(NC(=O)COc2ccc(/C=C/C(C)=N/O)cc2OC)cc1	SH-SY5Y	DCFDA flow cytometry	20 µM, with: amyloid beta 10 µM		ROS positive cells	18.8%
